Experimental data pooled from the literature.
Every numbered part comes from another study and shows a few of its results, in no order. Substitutions count along the parent as printed.

Sample 1
Target: CCND3, cyclin fold, Cln2 fusion (human)
Technique: yeast growth competition, sequencing
Sample: yeast
Setting: weak parent motif
Relative to: not given
Reading: higher = stronger binding
Parent: RBL1 docking peptide (human); GSAKRRLFGEDPP; partner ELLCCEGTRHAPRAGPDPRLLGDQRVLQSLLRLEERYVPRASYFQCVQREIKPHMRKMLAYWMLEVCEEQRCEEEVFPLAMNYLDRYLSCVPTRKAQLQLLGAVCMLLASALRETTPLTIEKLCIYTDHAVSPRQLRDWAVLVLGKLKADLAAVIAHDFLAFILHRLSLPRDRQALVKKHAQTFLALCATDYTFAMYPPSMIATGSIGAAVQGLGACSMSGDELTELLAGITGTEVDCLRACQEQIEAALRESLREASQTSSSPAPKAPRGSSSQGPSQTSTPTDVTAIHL
For `P13R`, “normalised enrichment score” read 0.121.
`K4C` — result for “normalised enrichment score”: 0.132.
`G9M`: “normalised enrichment score” 0.131.
`D11A` — result for “normalised enrichment score”: 0.179.
`P13A` — result for “normalised enrichment score”: 0.13.
`S2C` — result for “normalised enrichment score”: 0.209.
For `P13C`, “normalised enrichment score” read 0.113.
`R6L` — result for “normalised enrichment score”: 0.0999.
`G9E` — result for “normalised enrichment score”: 0.125.
`D11V` — result for “normalised enrichment score”: 0.0798.
Under “normalised enrichment score”, `P13V` is recorded as 0.206.
`P13L`: “normalised enrichment score” 0.113.
`R5S` — result for “normalised enrichment score”: 0.161.
For `S2D`, “normalised enrichment score” read 0.0479.
`P12L` — result for “normalised enrichment score”: 0.107.
Under “normalised enrichment score”, `R5D` is recorded as 0.0918.
Under “normalised enrichment score”, `L7H` is recorded as 0.124.
For `R5I`, “normalised enrichment score” read -0.00319.
`D11K` — result for “normalised enrichment score”: 0.162.
`P12Y`: “normalised enrichment score” 0.114.
For `F8G`, “normalised enrichment score” read 0.0477.
`G1K`: “normalised enrichment score” 0.117.
`P12R`: “normalised enrichment score” 0.167.
`K4I`: “normalised enrichment score” 0.141.
`E10L`: “normalised enrichment score” 0.146.

Sample 2
Target: MAFK, bZIP domain (human)
Technique: DHFR protein complementation
Sample: yeast
Setting: single substitutions, most at no-binding floor
Relative to: wild-type JUN-FOS pair
Reading: higher = stronger binding
Parent: JUN, bZIP domain (human); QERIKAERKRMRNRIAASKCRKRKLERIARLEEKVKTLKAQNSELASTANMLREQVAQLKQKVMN; partner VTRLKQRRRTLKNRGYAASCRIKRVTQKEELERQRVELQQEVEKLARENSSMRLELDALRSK
For `L59G`, the binding fitness was -1.42 natural log.
The binding fitness of `L38G` is reported as -1.44 natural log.
The binding fitness of `K36R` is reported as -1.45 natural log.
`N42Y` has a binding fitness of -1.34 natural log.
`R53M` has a binding fitness of -1.57 natural log.
`V56Q` gave a binding fitness of -1.46 natural log.
`L59R` gave a binding fitness of -1.18 natural log.
`Q41S` has a binding fitness of -1.53 natural log.
With `E33F` the binding fitness was -1.5 natural log.
For `V35G`, the binding fitness was -1.51 natural log.
With `T48K` the binding fitness was -1.41 natural log.
For `E54W`, the binding fitness was -1.51 natural log.
For `S43E`, the binding fitness was -1.29 natural log.
The binding fitness of `N42H` is reported as -1.44 natural log.
`L31T` has a binding fitness of -1.53 natural log.
The binding fitness of `R53G` is reported as -1.53 natural log.
`S47I` has a binding fitness of -1.47 natural log.
The binding fitness of `A29H` is reported as -1.56 natural log.

Sample 3
Target: Sal-like protein 4, full length isoform B (SALL4, Homo sapiens, UniProt Q9UJQ4-2, residues 1-616)
Technique: universal PBM
Form: double-stranded DNA, one strand shown
Sample: in vitro
Tested at: not given
Setting: 8-mer, flanks averaged, mean of replicates
Reading: higher = stronger binding
`GACGCGGC` gave an E-score of -0.172.
`ACGACCTC` gave an E-score of -0.131.
`ATTGTCAG` gave an E-score of 0.052.
The E-score of `AACCACTC` is reported as -0.137.
With `AACAACGT` the E-score was 0.0244.
`ATCGGCCG` has an E-score of -0.24.
With `CAGACCGG` the E-score was -0.4.
The E-score of `CTCATAAG` is reported as 0.187.
`AAGTGACG` has an E-score of -0.0556.
The E-score of `CGGGGTCA` is reported as -0.223.
The E-score of `CCAGGCGA` is reported as -0.333.
For `ACCATAAG`, the E-score was 0.202.
The E-score of `AAGAGCGA` is reported as -0.219.
`CTAGCACC` has an E-score of -0.191.
`CTGGAGGC` gave an E-score of -0.0565.
For `TGATCCAA`, the E-score was 0.162.
`ACGACGAG` gave an E-score of -0.0627.
For `AGTGATGG`, the E-score was -0.00924.
The E-score of `CATTTGCG` is reported as 0.0466.
For `CGGCCACG`, the E-score was -0.288.
The E-score of `ACGCCCTC` is reported as -0.0963.
The E-score of `GGGTTAGA` is reported as -0.141.
`AAGAGCTA` has an E-score of -0.0215.

Sample 4
Target: Prothrombin, mature alpha-thrombin (F2, Homo sapiens, UniProt P00734)
Technique: aptamer microarray, sandwich
Form: DNA with 2'F-ANA
Sample: in vitro
Tested at: 200 nM
Setting: whole 15-mer aptamer, many near background
Together with: Cy3 exosite-II aptamer, 400 nM
Reading: higher = stronger binding
Oligonucleotide: GGTTGGTGTGGTTGG
`2'F-ANA at 1 2 3 4 6 7 9 10 11 12 13 14 15`: “mean fluorescence intensity” 53.4 a.u.
For `2'F-ANA at 1 3`, “mean fluorescence intensity” read 353 a.u.
`2'F-ANA at 1 4 5 6 7 11 12`: “mean fluorescence intensity” 89.1 a.u.
For `2'F-ANA at 2 5 6 7 8 10 14 15`, “mean fluorescence intensity” read 49.5 a.u.
For `2'F-ANA at 2 11 12 13 15`, “mean fluorescence intensity” read 582 a.u.
For `2'F-ANA at 2 5 6 8 12 15`, “mean fluorescence intensity” read 305 a.u.
Under “mean fluorescence intensity”, `2'F-ANA at 2 8 9 10 14 15` is recorded as 87.1 a.u.
`2'F-ANA at 8 9 12 14`: “mean fluorescence intensity” 242 a.u.
`2'F-ANA at 1 2 3 4 5 8 9 10 11 13 14 15` — result for “mean fluorescence intensity”: 46.5 a.u.
For `2'F-ANA at 1 3 4 8 10 15`, “mean fluorescence intensity” read 63.3 a.u.
`2'F-ANA at 1 2 12` — result for “mean fluorescence intensity”: 400 a.u.
Under “mean fluorescence intensity”, `2'F-ANA at 2 5 8 9 10 13 14` is recorded as 46 a.u.
`2'F-ANA at 1 3 6 10 12 14`: “mean fluorescence intensity” 60.8 a.u.
`2'F-ANA at 1 3 5 9 12 13 14`: “mean fluorescence intensity” 46.1 a.u.
`2'F-ANA at 3 4 5 6 9 11` — result for “mean fluorescence intensity”: 86.6 a.u.
For `2'F-ANA at 3 5 7 8 11 12 13 15`, “mean fluorescence intensity” read 186 a.u.
`2'F-ANA at 1 3 4 5 6 7 9 10 12 13 14 15` — result for “mean fluorescence intensity”: 154 a.u.
`2'F-ANA at 1 3 4 8 13 14`: “mean fluorescence intensity” 77.2 a.u.
Under “mean fluorescence intensity”, `2'F-ANA at 1 2 4 5 8 9 10 11 13 14 15` is recorded as 52.9 a.u.

Sample 5
Target: Interferon regulatory factor 7, full length, phosphomimetic (IRF7, Homo sapiens, UniProt Q92985, residues 1-503, S101K/S471D/S472D/S475D/S476D/S477D/S483D/S484D/S487D)
UniProt Q92985, sequence (whole entry, unmodified, looked up): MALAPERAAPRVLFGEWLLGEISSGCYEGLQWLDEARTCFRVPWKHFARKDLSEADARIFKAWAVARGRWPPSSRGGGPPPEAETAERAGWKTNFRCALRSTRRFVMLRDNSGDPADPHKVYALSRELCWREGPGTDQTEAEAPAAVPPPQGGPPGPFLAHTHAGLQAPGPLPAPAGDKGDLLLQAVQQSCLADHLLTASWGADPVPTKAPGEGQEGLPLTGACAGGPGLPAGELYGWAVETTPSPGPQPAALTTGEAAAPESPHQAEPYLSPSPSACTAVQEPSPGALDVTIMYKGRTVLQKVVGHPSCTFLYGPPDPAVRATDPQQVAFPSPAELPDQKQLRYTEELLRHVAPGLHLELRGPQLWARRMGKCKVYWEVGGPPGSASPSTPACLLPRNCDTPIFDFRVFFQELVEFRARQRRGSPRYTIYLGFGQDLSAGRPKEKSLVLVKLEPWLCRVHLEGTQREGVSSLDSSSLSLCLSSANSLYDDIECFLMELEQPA
Technique: protein-binding microarray
Form: double-stranded DNA, one strand shown
Sample: in vitro
Tested at: 250 nM
Setting: 60-bp whole probe
Together with: salmon DNA 0.4 mg/ml
Relative to: random background probes
Reading: higher = stronger binding
Shared flanks, not repeated: GCCTAGCAC … GTCTTGATTCGCTTGACGCTGCTG
`TCTGTTTTCGCTTTCTTTAAGTGCTAG` gave a log fluorescence of 9.42 z-score.
The log fluorescence of `TCAATGATCCAGTTTTACACTGTGCTA` is reported as 0.0375 z-score.
`TCAAAAAAAAAAAACTGTACTGTGCTA` has a log fluorescence of 0.607 z-score.
`GACGATTTCAGTCTCCAGACGTGCTAG` has a log fluorescence of -0.00213 z-score.
The log fluorescence of `TACATTTTCCAAATGCCCCTGTGCTAG` is reported as 1.26 z-score.
For `TCATTTTTTTCATTATTACTGTGCTAG`, the log fluorescence was 1.08 z-score.
For `GACGGACTGGGTTATCGGGACGTGCTA`, the log fluorescence was -0.422 z-score.
The log fluorescence of `GAAGGACTGCTTTTCCTGACGTGCTAG` is reported as 0.889 z-score.
`TCAAATATATGTATATAACTGTGCTAG` has a log fluorescence of 0.143 z-score.
For `TCATGGCTCCCTATAAAACTGTGCTAG`, the log fluorescence was -0.515 z-score.
With `AACGATTTCAGTATCGAGACGTGCTAG` the log fluorescence was 0.498 z-score.
The log fluorescence of `GACGGACTGGGACTAGGGACGTGCTAG` is reported as -0.264 z-score.
For `TCATCTTCATGTTTTTTACTGTGCTAG`, the log fluorescence was 0.565 z-score.
`TTAGGTTTCGGTGCCGGTTAGTGCTAG` has a log fluorescence of 2.97 z-score.
`GACGGTCTCGGTCTCGGGAAGTGCTAG` gave a log fluorescence of 1.01 z-score.
For `TTAGGACTGCTTTTCCATTAGTGCTAG`, the log fluorescence was 1.29 z-score.
`AATTCTTTGCTCATTTTTCAGGTGCTA` has a log fluorescence of 0.345 z-score.
`TTAGATTTCAGTCTAGATTAGTGCTAG` has a log fluorescence of 0.0689 z-score.
`TTAGGAGTGGACACTGGGTTAGTGCTA` has a log fluorescence of -0.69 z-score.

Sample 6
Target: Ras GTPase-activating protein-binding protein 1, RRM domain (G3BP1, Homo sapiens, UniProt Q13283)
UniProt Q13283, sequence (whole entry, looked up): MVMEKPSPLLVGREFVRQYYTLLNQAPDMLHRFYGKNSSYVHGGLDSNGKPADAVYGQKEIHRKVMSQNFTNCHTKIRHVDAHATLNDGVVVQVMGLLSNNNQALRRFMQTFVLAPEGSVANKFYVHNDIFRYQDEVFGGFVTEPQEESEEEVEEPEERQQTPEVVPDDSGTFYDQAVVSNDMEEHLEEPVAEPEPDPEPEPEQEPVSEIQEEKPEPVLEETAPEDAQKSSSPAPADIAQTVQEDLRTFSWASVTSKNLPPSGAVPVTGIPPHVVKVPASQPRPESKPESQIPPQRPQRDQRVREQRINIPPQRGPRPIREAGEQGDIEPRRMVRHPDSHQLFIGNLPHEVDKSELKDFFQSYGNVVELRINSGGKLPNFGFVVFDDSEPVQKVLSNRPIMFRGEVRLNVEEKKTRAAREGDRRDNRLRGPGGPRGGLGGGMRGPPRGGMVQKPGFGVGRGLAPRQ
Technique: RNA Bind-n-Seq
Form: RNA
Sample: in vitro
Tested at: 1 µM
Setting: whole 134-nt RNA, ends assumed
Together with: 150 mM KCl
Relative to: input library
Reading: higher = stronger binding
Shared flanks, not repeated: GGGAGUUCUACAGUCCGACGAUC … UGGAAUUCUCGGGUGUCAAGG
The log2 enrichment of `GUCCUGUGCUACACAUCGUAUGUACCGAAUCGGGUUUUUGGGUUUUUGGGGUUUUUGGGAAAGUAUUAUGUUACGCCGUUCGGAUCUGCA` is reported as 0.147.
`ACCAUGCAGGUGGGCAUCUUUGGGAAGUGGGGCAAGGGGGGGAUAGGGAGGGGGGUAACACUUUGGGAACUGGUGGUCCCAGGUCGUUUC` gave a log2 enrichment of 0.631.
`UCCUGUGCUACACAUCGUAUGUACCGAAUCGGGGAAAAAAGGAAAAAAGGGAAAAAAGGGAAAGUAUUAUGUUACGCCGUUCGGAUCUGC` has a log2 enrichment of -0.00617.
The log2 enrichment of `UUCCUCAAGUCCUGUGCUACACAUCGUAUGUACCGAAUCGGCGGCGGCGGAAAGUAUUAUGUUACGCCGUUCGGAUCUGCACUUCCAGCA` is reported as -0.209.
For `CAGCAGCAGAGUGAGUGGAUUUUAUUUUUCGUUAUUGUUGGUGGUUUAAAAAAUUCCCCCCAUGUAAUUAUUGUGAACACCUUGCUUUGU`, the log2 enrichment was -0.146.
The log2 enrichment of `AAGUCCUGUGCUACACAUCGUAUGUACCGAAUCGGAAAGGUUUUUGGAAAAAAAGGAAAGUAUUAUGUUACGCCGUUCGGAUCUGCACUU` is reported as -0.176.
`AAGUCCUGUGCUACACAUCGUAUGUACCGAAUCGGGAAAGGGUUUUUUUGGGAGGGAAAGUAUUAUGUUACGCCGUUCGGAUCUGCACUU` has a log2 enrichment of 0.647.
`UCCUGUGCUACACAUCGUAUGUACCGAAUCGGGGAAAGGGGAAAAAAAGGGGUUUGGGGAAAGUAUUAUGUUACGCCGUUCGGAUCUGCA` has a log2 enrichment of 0.795.
`UGUGCUACACAUCGUAUGUACCGAAUCGGGGAAAAAGGGGUUUUUUUGGGGUUUUUUUGGGGAAAGUAUUAUGUUACGCCGUUCGGAUCU` has a log2 enrichment of 1.17.
`CGGCCCUGGUGGCAUGCGGGGAGGAAGAGGUGGCCUCAUGGAUCGUGGUGGUCCCGGUGGAAUGUUCAGAGGUGGCCGUGGUGGAGACAG` has a log2 enrichment of 0.983.
`CUCAAGUCCUGUGCUACACAUCGUAUGUACCGAAUCGGCCGGGGCCGGCCGGGGAAAGUAUUAUGUUACGCCGUUCGGAUCUGCACUUCC` has a log2 enrichment of -0.217.
`UCAAGUCCUGUGCUACACAUCGUAUGUACCGAAUCGGAAAGGUUUUUGGAAAGGAAAGUAUUAUGUUACGCCGUUCGGAUCUGCACUUCC` has a log2 enrichment of -0.283.
`UGGCCCUGGUGGCAUGCGGGGAGGAAGAGGUGGCCUCAUGGAUCGUGCUGGUCCCGGUGGAAUGUUCAGAGGUGGCCGUGGUGGAGACAG` gave a log2 enrichment of 0.315.
With `UAACGUUAGAGGAGGAUCUGAUGGAUAUGGCAGUGGACGUGGAUUUGGGGAUGGCUAUAAUGGGUAUGGAGGAGGACCUGGAGGUGGCAA` the log2 enrichment was -0.603.

Further values, each from its own experiment
The fold induction of `PhoQ, residues 284 288 289 292 302 303 SVTLVV` is reported as 0.985 (PhoP, residues 12 14 15 18 19 SYFRT (Escherichia coli, UniProt P23836); Sort-seq, refers to: YFP reporter; E. coli; PhoQ-PhoP variant library, together with: 10 µM Mg2+; relative to: high Mg2+ state, higher = stronger signaling).
